# Measured values from different studies.
# Each line is one published result; not all experiments were run side by side. Values joined by “and” are separate records of one study, mostly repeats; a detail may differ. ± marks the error that the study gave.
# Chain of UniProt Q9Y5T5 (whole entry, looked up): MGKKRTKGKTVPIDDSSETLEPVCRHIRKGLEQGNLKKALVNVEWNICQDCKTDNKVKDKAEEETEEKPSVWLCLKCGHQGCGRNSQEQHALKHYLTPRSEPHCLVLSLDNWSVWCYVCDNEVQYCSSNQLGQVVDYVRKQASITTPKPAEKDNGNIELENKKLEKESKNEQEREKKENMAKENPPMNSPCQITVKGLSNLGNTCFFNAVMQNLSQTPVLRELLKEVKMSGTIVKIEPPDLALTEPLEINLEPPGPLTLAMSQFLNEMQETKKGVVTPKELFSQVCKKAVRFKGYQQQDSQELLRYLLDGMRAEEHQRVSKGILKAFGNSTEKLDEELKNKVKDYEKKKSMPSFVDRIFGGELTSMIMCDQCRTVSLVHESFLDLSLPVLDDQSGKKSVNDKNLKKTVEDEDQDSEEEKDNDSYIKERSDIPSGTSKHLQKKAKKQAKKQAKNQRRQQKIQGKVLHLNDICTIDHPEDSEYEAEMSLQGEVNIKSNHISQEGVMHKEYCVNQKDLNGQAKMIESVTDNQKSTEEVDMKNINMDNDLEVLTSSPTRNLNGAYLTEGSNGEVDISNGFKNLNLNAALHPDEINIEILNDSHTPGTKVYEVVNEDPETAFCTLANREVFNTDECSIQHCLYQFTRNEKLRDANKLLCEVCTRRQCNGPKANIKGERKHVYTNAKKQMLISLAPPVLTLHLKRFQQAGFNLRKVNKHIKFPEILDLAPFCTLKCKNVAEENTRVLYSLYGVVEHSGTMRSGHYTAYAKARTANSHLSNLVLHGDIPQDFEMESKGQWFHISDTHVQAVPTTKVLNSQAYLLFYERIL
Structure (SMILES),target or system,assay,system,setting,scale,endpoint,value
Cc1nc2cccc(OCC(C)(C)C(=O)NC(C)C)c2c(N)c1C(=O)O,,,"male Swiss albino CD-1 mouse, bone marrow","oral, 1000 mg/kg, 24 h",,PCE/NCE ratio,0.79
CC(C)(C(=O)N1CCOc2c(C#N)cncc2C1)C(F)F,,measured: Dyspepsia,human,"oral, 20 mg twice daily, 14 days, multiple ascending dose",,subjects with adverse event,0%
Cc1cc(-c2nccc3c2ccn3CC(=O)Nc2ccc(-c3cnccn3)cn2)ccn1,,,"human, plasma and urine","oral, 20 mg once daily, day 16, geometric mean",,renal clearance,0.152 L/h
CO[C@]1(C(=O)N[C@@H](C)c2ccc(-n3cc(F)cn3)nc2)CC[C@H](c2nc(C)cc(Nc3cc(C)[nH]n3)n2)CC1,,,"humans, urine and feces","oral, dose not given",baseline: dose,unrecovered radioactivity,~21% and 21.4%
NC1(C(=O)N[C@@H](CCO)c2ccc(Cl)cc2)CCN(c2nc[nH]c3nccc2-3)CC1,,,metastatic CRPC patients,"dose not given, grade 3 to 4, treatment-related, all doses, added: enzalutamide 160 mg daily",,incidence of Leukopenia,0%
Cn1cc(-c2cn3nccc3c(-c3cnn([C@]4(CC#N)C[C@@H](C#N)C4)c3)n2)cn1,,,"human, urine","oral, 100 mg once daily, day 10, dosing interval geometric mean",,amount excreted unchanged in urine,1.1 mg
OC[C@H]1O[C@@H](c2ccc(Cl)c(Cc3ccc(O[C@H]4CCOC4)cc3)c2)[C@H](O)[C@@H](O)[C@@H]1O,,,"Japanese type 1 diabetes patients, blood","2.5 mg, day 28",baseline: baseline,change in Bicarbonate,-0.9 mEq/L
CCO[C@H]1CCN(Cc2c(OC)cc(C)c3[nH]ccc23)[C@H](c2ccc(C(=O)O)cc2)C1,,,"human mild hepatic impairment, plasma","oral, 200 mg single dose, median",,unbound AUClast,5.78 µg·h/mL
C[C@H]1Oc2cc(cnc2N)-c2c(nn(C)c2C#N)CN(C)C(=O)c2ccc(F)cc21,,,mouse BALB/c nude female,"5 mg/kg twice daily for 5 days, 12 h",,free plasma concentration,0.134 µM
C/C(O)=C(\C#N)C(=O)Nc1ccc(C(F)(F)F)cc1,,,"CD-1 mice female, plasma","oral, 30 mg/kg leflunomide daily, 24 h",,free plasma concentration,251 ± 130 µM
CCN1/C(=C/C(C)=O)Sc2ccc(F)cc21,,,cynomolgus monkey,"oral, 100 mg/kg, 4 h post-dose",,QTc interval (Bazett),331 ± 6 ms
CCC(=O)O[C@]1(C(=O)SCF)[C@H](C)C[C@H]2[C@@H]3C[C@H](F)C4=CC(=O)C=C[C@]4(C)[C@@]3(F)[C@@H](O)C[C@@]21C,,three-compartment model,"rat, plasma","intravenous, 90 nmol/kg",,slow distribution clearance,2.1 ± 0.63 L/h/kg
COc1cc([C@H]2OC[C@H]3[C@@H]2CO[C@@H]3c2ccc(O[C@@H]3O[C@H](CO)[C@@H](O)[C@H](O)[C@H]3O)c(OC)c2)ccc1O[C@@H]1O[C@H](CO)[C@@H](O)[C@H](O)[C@H]1O,,post-procedure stability,rat plasma,"8 ng/mL, 1 h, room temperature",,accuracy,88.9%
CO[C@H]1C[C@@H]2CC[C@@H](C)[C@@](O)(O2)C(=O)C(=O)N2CCCC[C@H]2C(=O)O[C@H]([C@H](C)C[C@@H]2CC[C@@H](OC(=O)NCCOCCOCCOCCOCCOCCOCCOCCOCCC(=O)N3CCc4cc(Cn5nc(-c6ccc7oc(N)nc7c6)c6c(N)ncnc65)ccc4C3)[C@H](OC)C2)C[C@@H](O)[C@H](C)/C=C(\C)[C@@H](O)[C@@H](OC)C(=O)[C@H](C)C[C@H](C)/C=C/C=C/C=C/1C,,,"human patients, plasma","intravenous, 1.6 mg, cycle 1 day 15, weekly dosing",,Cmax,0.0628 µg/mL
C=C[C@@](C)(/C=C/c1ccc(O)cc1)CCC=C(C)C,,post-procedure stability,rat plasma,"200 ng/mL, 1 h, room temperature",,accuracy,94.7%
C=CC(=O)NC1CCN(c2ncc3ncnc(Nc4ccc(Oc5ccc6c(c5)ncn6C)c(C)c4)c3n2)CC1,,measured: total radioactivity,"healthy male human, whole blood and plasma","oral, 60 mg, 6 h, geometric mean",,blood-to-plasma ratio,0.802
N#Cc1cc(NC(=O)[C@H]2c3ccccc3C(=O)N(CC(F)(F)F)[C@@H]2c2cccnc2)ccc1F,,,"human, plasma","oral, 300 mg, median",,AUC,10.2 µg·h/mL
[18F]c1ccc(-c2ccc3c(c2)[nH]c2ccncc23)cn1,,microPET/CT imaging,"B6SJL mouse, normal, brain","intravenous, 20 min",,SUV,0.602 ± 0.118
C[Si]1(C)O[Si](C)(C)O[Si](C)(C)O[Si](C)(C)O[Si](C)(C)O1,,,1-octanol/water,concentration not given,,entropy of phase change,0.386 kJ/(mol·K)
CC(C)(C)OC[C@@H]1C(=O)NCCN1C(=O)C[C@H](N)Cc1cc(F)c(F)cc1F,,,"healthy humans, plasma","oral, 5 mg, alone",,Vss/F,1740 ± 410 L
Cc1ccc([C@@H]2O[C@H](CO)[C@@H](O)[C@H](O)[C@H]2O)cc1Cc1ccc(-c2ccc(F)cc2)s1,,,Japanese type 2 diabetes patients,"400 mg, day 1, 24 h urine collection",baseline: baseline,urinary sodium excretion change,36.1 mEq
COCc1cc(C(=O)Nc2cc([C@H]3CC[C@@H](OC(=O)NC(C)C)C3)[nH]n2)n(C)n1,,,"OVCAR-3 xenograft, NOD/SCID gamma mice, plasma","oral, 125 twice daily, PK/PD study",,AUC(0-24h),17.6 µM·h
N#Cc1ccc2c(c1)[C@H]1CCCN(C(=O)c3ccc4[nH]cnc4c3)[C@H]1C2,,,"human, male","80 mg, day 15",,DHEA-S level,6.6 µmol/L
CCc1cc(C(=O)NC)c2nccc(N3CCc4c(cc(Cn5ccnc5)cc4-c4cn(C)nc4C(F)(F)F)C3=O)c2c1,,,Sprague Dawley rats,"oral, 50 mg/kg once daily, 7 days",,serum LDL level,0.7 ± 0.09 mmol/L
O=C(O)CSc1nnc(Br)n1-c1ccc(C2CC2)c2ccccc12,,,"KM mouse, chronic hyperuricaemia model","dose not given, day 19",,body weight,38.4 g and 31.3 g and 29 g and 34.6 g and 36 g and 34.9 g
O=C(c1nc2n(n1)[C@H](c1ccccc1)C[C@@H]2F)C1CC1,,,human,"150 mg single dose, mean",,renal clearance,0.0107 L/h
CNCCOC12CC3(C)CC(C)(CC(Cn4ncc(-c5ccc(N6CCc7cccc(C(=O)Nc8nc9ccccc9s8)c7C6)nc5C(=O)O)c4C)(C3)C1)C2,,,anaesthetised male beagle dogs,"intravenous bolus, 0.03 mg/kg, 180 min",,plasma concentration,0 µg/mL
COc1cccc(OC)c1-c1cc(C(=O)NC2(C(=O)O)C3CC4CC(C3)CC2C4)nn1-c1ccc(C(=O)N(C)CCCN(C)CCCN(C)C(=O)CN2CCN(CC(=O)[O-])CCN(CC(=O)[O-])CCN(CC(=O)[O-])CC2)cc1C(C)C.[177Lu+3] (stereo not drawn),,,"mouse, HT-29 xenograft, brain",4 h post injection,,tissue uptake,0.34 %ID/g
Cc1cc(NC2CCN(C(=O)OC3CCN(C(=O)/C=C/CN(C)C)C3)CC2)n2ncc(C(C)C)c2n1 (stereo not drawn),,"Phase I dose escalation CTCAE v4.0, measured: platelet count decreased",patients with advanced solid tumours,"dose not given, QD dosing grade 3 or higher",,patients with adverse event,9%
C/C(=N\c1ccc(O)cc1)c1cc2ccccc2n1C,,,processed rat plasma sample,"1000 ng/mL, 24 h, room temperature, autosampler tray",baseline: nominal,remaining compound,98.8 ± 1.9%
Cc1c(-c2ccc(N3CCc4cccc(C(=O)Nc5nc6ccccc6s5)c4C3)nc2C(=O)O)cnn1CC12CC3(C)CC(C)(C1)CC(OCCNCC[C@H](O)CO)(C3)C2,,,"beagle dog, anaesthetised","intravenous infusion, 0.1 mg/kg/min, 150 min",baseline: baseline,mean arterial pressure change,-13 mmHg
CCOC(=O)c1c(NC(=O)CNC(C)C)sc2c1CCCCC2,,,"mouse, brain","intraperitoneal, 100 mg/kg",,brain AUC(0-24 h),31900 ng·h/g
c1ccc2cc3ccccc3cc2c1,,,polyethylene-water partitioning,PAH compilation,,literature range of log K,4.15 to 4.76 log units
CNC(=O)c1ccc(-c2cnc3ncc(Cc4ccc5ncccc5c4)n3n2)cc1F,,,gastric cancer patients,"oral, 600 mg twice daily, all grades RP2D expansion",,abdominal distension incidence,0%
O=C(O)CCc1ccccc1,"Ubiquitin carboxyl-terminal hydrolase 16, ZnF-UBD domain (USP16, Homo sapiens, UniProt Q9Y5T5)",,,,,Kd,429 µM
N[C@@H](Cc1ccccc1)C(=O)O,,"binding, MIDAS equilibrium dialysis LC-MS",A2AR-BRIL thermostabilized,concentration not given,baseline: no-protein control,log2 fold change,-0.142
Cc1cc(Nc2cc3ncccc3c(N[C@@H]3C[C@H]4CC[C@@H](C3)N4CCC#N)n2)n[nH]1,,,healthy human,"oral, 100 mg multiple doses, 14 days",,subjects with epistaxis,0%
Nc1nc(=O)c2nc(CNc3ccc(C(=O)N[C@@H](CCC(=O)O)C(=O)O)cc3)cnc2[nH]1,,"binding, MIDAS equilibrium dialysis LC-MS",A2AR-BRIL thermostabilized,concentration not given,baseline: no-protein control,log2 fold change,-0.254
CCCCCN1C[C@H](O)[C@@H](O)[C@H](O)[C@@H]1CO,,LC-MS/MS,"mouse Hexb-/- male, plasma","300 mg/kg/day, geometric mean",,plasma concentration,2.71 µg/mL
CC(C)[N+](C)(CCOC(=O)C1c2ccccc2Oc2ccccc21)C(C)C,,,"mouse, CD-1, both sexes, whole blood","5 µM, 60 min",,remaining compound,46.5%
Cc1ccc(C(=O)N(CCCN)C(c2nc3snc(C)c3c(=O)n2Cc2ccccc2)C(C)C)cc1 (stereo not drawn),,stomatitis grade ≥3 (CTCAE),human patients,"intravenous, 13 mg/day",,patients with adverse event,0%
Cl.[2H]C([2H])([2H])CC(=O)c1cnc(NC(=O)C2CC2)cc1Nc1cccc(-c2ncn(C([2H])([2H])[2H])n2)c1OC,,geometric mean,human,"oral, 40 mg twice daily, day 1, fed, liquid, multiple dose",,Vz/F,108 L

# Repeated from above:
Structure (SMILES),target or system,assay,system,setting,scale,endpoint,value
O=C(O)CCc1ccccc1,"Ubiquitin carboxyl-terminal hydrolase 16, ZnF-UBD domain (USP16, Homo sapiens, UniProt Q9Y5T5)",,,,,Kd,429 µM
N[C@@H](Cc1ccccc1)C(=O)O,,"binding, MIDAS equilibrium dialysis LC-MS",A2AR-BRIL thermostabilized,concentration not given,baseline: no-protein control,log2 fold change,-0.142
Cc1cc(Nc2cc3ncccc3c(N[C@@H]3C[C@H]4CC[C@@H](C3)N4CCC#N)n2)n[nH]1,,,healthy human,"oral, 100 mg multiple doses, 14 days",,subjects with epistaxis,0%
